# Results gathered from unrelated publications.
# Protocols differ between the studies behind these lines. Several values in a cell are separate wells, animals, samples, runs or records. ± marks the error that the study gave.
Compound,assay,test system,conditions,scale,quantity,result
O=C(O[C@@H]1[C@@H](O)[C@H](Oc2cc(O)c3c(c2)O[C@H](c2ccccc2)CC3=O)O[C@@H]2COC(=O)c3cc(O)c(O)c(O)c3-c3c(cc(O)c(O)c3O)C(=O)O[C@@H]12)c1cc(O)c(O)c(O)c1,,healthy mouse,25 µg/g,,toxicity,not toxic
CCc1noc(CC)c1C(=O)O[C@H]1C(C)=C[C@]23C(=O)[C@@H](C=C(CO)[C@@H](O)[C@]12O)[C@H]1[C@@H](C[C@H]3C)C1(C)C,,"human, skin, Franz diffusion cell","topical, 0.1% in gel, 21 h",relative to: epidermis over dermis,epidermal over dermal concentration ratio,> 100 fold
C[C@]12CC[C@H](O)CC1CCC1C2[C@H](O)C(=O)[C@]2(C)[C@@H](c3ccc(=O)oc3)CC[C@]12O (some centres unmarked),substrate,pooled human liver cytosol,"concentration not given, pH 7.4",,sulfation rate,58.7 pmol/min/mg protein
O=C([O-])CN(CCN(CC(=O)[O-])CC(=O)[O-])CCN(CC(=O)[O-])CC(=O)[O-].[177Lu+3],,human serum,"24 h, 37 °C, with: 177Lu",,radiometal bound to chelator,82%
CC[C@H](C)[C@H](NC(=O)CNC(=O)[C@H](Cc1ccccc1)NC(=O)[C@H](CCCCN)NC(=O)[C@H](CCCCN)NC(=O)[C@H](CCCNC(=N)N)NC(=O)[C@H](CCCNC(=N)N)NC(=O)[C@H](CCCNC(=N)N)NC(=O)[C@H](CCC(N)=O)NC(=O)[C@H](CCCNC(=N)N)NC(=O)[C@H](CCCNC(=N)N)NC(=O)[C@H](CCCCN)NC(=O)[C@H](CCCCN)NC(=O)[C@H](CCCNC(=N)N)NC(=O)CNC(=O)[C@@H](N)Cc1ccc(O)cc1)C(=O)N[C@H](C(=O)N[C@@H](CC(N)=O)C(=O)N[C@@H](CO)C(=O)N[C@@H](CCC(N)=O)C(=O)N[C@@H](CC(C)C)C(=O)N[C@@H](CCCCN)C(=O)N1CCC[C@H]1C(=O)O)[C@@H](C)O,open field test,5XFAD and wild-type mice,"intraperitoneal, 25 mg/kg, outcome no effect",,locomotor activity,no effect
CCN(Cc1ccccc1)C(=O)CCc1nc(CN2CCN(C(=O)Cc3ccc(OC)c(OC)c3)CC2)no1,,"rat, brain","intravenous, 1 mg/kg, 15 min",,concentration,4.6 ng/g
CCCCCCCCCCCCC(=O)O.O=C1CCCC2C3CCCN4CCCC(CN12)C34 (centres unmarked),shake-flask,ultrapure water,"pH 7.0, 25 °C",,log octanol-water partition coefficient,0.49
COC(=O)C[C@](O)(CCCC(C)(C)OC(C)=O)C(=O)O[C@@H]1C(OC)=C[C@]23CCCN2CCc2cc4c(cc2[C@H]13)OCO4,,"CD1 mouse, bone marrow","subcutaneous, 1 mg/kg, 24 h, below quantification limit 1.00 ng/mL",,tissue concentration,not detected
CN[C@](C)(C[18F])C(=O)O,,"mouse, pancreas","15 min, tumour-bearing",,tracer uptake,57 %ID/g
COc1cc2ncnc(Oc3cccc(N[11C](=O)Nc4cc(C(C)(C)C(F)(F)F)on4)c3)c2cc1OC,,"female Balb/c nude mice, plasma","intravenous, dose not given, 5 min",,radioactivity,3.69 ± 0.35 %ID/g
N=C(N)NCCC[C@@H](NC(=O)[C@H](N)Cc1c[nH]c2ccccc12)C(=O)N[C@H](CCCCN)C(=O)N[C@H](Cc1c[nH]c2ccccc12)C(=O)N[C@H](CCCNC(=N)N)C(=O)N[C@H](CCCCN)C(=O)N[C@H](Cc1c[nH]c2ccccc12)C(=O)N[C@H](CCCNC(=N)N)C(=O)N[C@H](CCCCN)C(=O)N[C@H](Cc1c[nH]c2ccccc12)C(=O)N[C@H](CCCNC(=N)N)C(=O)N[C@H](CCCCN)C(N)=O,,mouse,"intraperitoneal, 40 mg/kg single dose",,mortality,25%
CC(C)C[C@H](NC(=O)[C@H](CCCCN)NC(=O)[C@H](CCC(=O)O)NC(=O)[C@H](C)NC(=O)[C@@H](NC(=O)[C@H](CCCCN)NC(=O)[C@H](CC(=O)O)NC(=O)[C@H](Cc1ccc(O)cc1)NC(=O)[C@H](Cc1ccccc1)NC(=O)[C@H](C)NC(=O)[C@H](CCCCN)NC(=O)[C@H](CC(C)C)NC(=O)[C@H](Cc1c[nH]c2ccccc12)NC(=O)[C@@H](N)CC(=O)O)C(C)C)C(=O)N[C@@H](CCCCN)C(=O)N[C@@H](CCC(=O)O)C(=O)N[C@@H](C)C(=O)N[C@@H](Cc1ccccc1)C(=O)N1CCC[C@H]1C(=O)N[C@@H](CC(=O)O)C(=O)N[C@@H](Cc1c[nH]c2ccccc12)C(=O)N[C@@H](C)C(=O)N[C@@H](CCCCN)C(=O)N[C@@H](C)C(=O)N[C@@H](C)C(=O)N[C@@H](Cc1ccc(O)cc1)C(=O)N[C@@H](CC(=O)O)C(=O)N[C@@H](CCCCN)C(=O)N[C@@H](C)C(=O)N[C@@H](C)C(=O)N[C@@H](CCC(=O)O)C(=O)N[C@@H](CCCCN)C(=O)N[C@@H](C)C(=O)N[C@@H](CCCCN)C(=O)N[C@@H](CCC(=O)O)C(=O)N[C@@H](C)C(=O)N[C@@H](C)C(=O)O,,"cynomolgus monkey female, plasma","intravenous infusion, 8 mg/kg every other day, day 27",,half-life,3.2 h
COc1cc(NC(=O)C(=O)c2c(C)n(Cc3ccc(Cl)cc3)c3ccc(C)cc23)ccn1,,"cynomolgus monkey, male, plasma","intravenous, 1 mg/kg",,C0,1650 ng/mL
O=C(NCCCCCCCCn1ccc2ccccc21)Oc1ccccc1,,rat liver S9 fraction,"30 min, with: NADPH",,parent remaining,49 ± 1%
NC(=O)[C@@H](CCCCNC(=O)CNC(=O)CCC(=O)NCCc1c[nH]cn1)NC(=O)[C@@H](Cc1ccc(O)cc1)NC(=O)[C@@H](CCCCNC(=O)CNC(=O)CCC(=O)NCCc1c[nH]cn1)NC(=O)Cc1ccc(CN2CCN(CC(=O)O)CCN(CC(=O)O)CC2)cc1 [fluorine-18 labelled],,tumour-bearing nude mice,"intravenous, 1 h, TF2 pretargeting",relative to: tumour over bone,tissue ratio,120 ± 108
CC(CCC(=O)NCC(=O)O)C1CCC2C3C(O)CC4CC(OC5OC(C(=O)O)C(O)C(O)C5O)CCC4(C)C3CCC12C (centres unmarked),,"human, SLCO1B1 *5/*35, plasma","geometric mean, sex-adjusted",,plasma concentration,46.7 ng/mL
CC(=O)NC(Cc1ccc(Br)c(Cl)c1)C(=O)N[C@@H](C)C(=O)N1CCC[C@H]1C(=O)N1CCC[C@H]1C(=O)N[C@@H](CCC(=O)O)C(=O)N[C@@H](Cc1c[nH]cn1)C(=O)N[C@@H](CO)C(=O)N[C@H](C(=O)N[C@@H](C)C(N)=O)[C@@H](C)OP(=O)(O)O (some centres unmarked),metabolic stability,"human, liver microsomes","1 µM, pH 7.4",,microsomal CLint,39 µL/min/mg
COc1ccc2c(c1)C(C)(C)C(/C=C/C1=C(Oc3ccc(C(=O)NCCCCOc4cc(CN(Cc5ccccn5)Cc5ccccn5)cc(CN(Cc5ccccn5)Cc5ccccn5)c4)cc3)C(=C/C=C3/N(CCCCS(=O)(=O)[O-])c4ccc(OC)cc4C3(C)C)CCC1)=[N+]2CCCCS(=O)(=O)[O-].O=[N+]([O-])O.O=[N+]([O-])[O-].O=[N+]([O-])[O-].O=[N+]([O-])[O-].[Zn+2].[Zn+2],,whole mouse blood,64 µM,,photoacoustic maximum wavelength,810 nm
CC[C@H](C)[C@H](NC(=O)[C@H](Cc1ccccc1)NC(=O)[C@H](CCC(=O)O)NC(=O)[C@H](CCCCN)NC(=O)[C@H](C)NC(=O)[C@H](C)NC(=O)[C@H](CCC(N)=O)NC(=O)CNC(=O)[C@H](CCC(=O)O)NC(=O)[C@H](CC(C)C)NC(=O)[C@H](Cc1ccc(O)cc1)NC(=O)[C@H](CO)NC(=O)[C@H](CO)NC(=O)[C@@H](NC(=O)[C@H](CC(=O)O)NC(=O)[C@H](CO)NC(=O)[C@@H](NC(=O)[C@H](Cc1ccccc1)NC(=O)[C@@H](NC(=O)CNC(=O)[C@H](CCC(=O)O)NC(=O)CNC(=O)[C@@H](N)Cc1c[nH]cn1)[C@@H](C)O)[C@@H](C)O)C(C)C)C(=O)N[C@@H](C)C(=O)N[C@@H](Cc1c[nH]c2ccccc12)C(=O)N[C@@H](CC(C)C)C(=O)N[C@H](C(=O)N[C@@H](CCCCN)C(=O)NCC(=O)N[C@@H](CCCNC(=N)N)C(=O)N[C@@H](CSC1CC(=O)N(CCC(=O)NCCCCC(NC(=O)CCN2C(=O)CC(SC[C@H](NC(=O)[C@H](CCCNC(=N)N)NC(=O)CNC(=O)[C@H](CCCCN)NC(=O)[C@@H](NC(=O)[C@H](CC(C)C)NC(=O)[C@H](Cc3c[nH]c4ccccc34)NC(=O)[C@H](C)NC(=O)[C@@H](NC(=O)[C@H](Cc3ccccc3)NC(=O)[C@H](CCC(=O)O)NC(=O)[C@H](CCCCN)NC(=O)[C@H](C)NC(=O)[C@H](C)NC(=O)[C@H](CCC(N)=O)NC(=O)CNC(=O)[C@H](CCC(=O)O)NC(=O)[C@H](CC(C)C)NC(=O)[C@H](Cc3ccc(O)cc3)NC(=O)[C@H](CO)NC(=O)[C@H](CO)NC(=O)[C@@H](NC(=O)[C@H](CC(=O)O)NC(=O)[C@H](CO)NC(=O)[C@@H](NC(=O)[C@H](Cc3ccccc3)NC(=O)[C@@H](NC(=O)CNC(=O)[C@H](CCC(=O)O)NC(=O)CNC(=O)[C@@H](N)Cc3c[nH]cn3)[C@@H](C)O)[C@@H](C)O)C(C)C)[C@@H](C)CC)C(C)C)C(N)=O)C2=O)C(=O)NCCCCCCN)C1=O)C(N)=O)C(C)C (some centres unmarked),"refers to: ALT, AST, BUN, creatinine","db/db mouse, serum","subcutaneous, 500 nmol/kg twice daily, 7 days",relative to: control,liver and kidney toxicity markers,no effect
CC(=CCC(O)C(C)=Cc1csc(C)n1)CC=CC(C)C(O)C(C)C(=O)C(C)(C)C(O)CC(=O)O (centres unmarked),,"human, plasma","intravenous infusion, 48 mg/m2 KOS-1584, 3 h infusion, cycle 1",,AUC,484 ± 17 ng·h/mL
CC(C)[C@H](NC(=O)CNC(=O)[C@H](CCC(N)=O)NC(=O)[C@H](C)N)C(=O)O,,human,3 mg/kg single dose,,subjects with moderate adverse events,0%
[11CH3]Oc1ccc(C(=O)Nc2cc(-c3ccc(I)cc3)no2)cc1,,"rhesus macaque, venous blood","intravenous, 5 min",,parent compound fraction,~21% and 21%
CN(C)C(CNC(=O)Nc1cc(C(F)(F)F)ccc1N1CCOCC1)c1ccncc1 (centres unmarked),,"mouse, serum","intraperitoneal, 360 mg/kg single dose",,serum glucose,259 mg/dL
